Measurements from different studies.
Compare with care: the assays were run in different laboratories. Values joined by “and” are separate records of one study, mostly repeats; a detail may differ. ± gives the spread as reported.

Structure (SMILES) = CCc1cnc(N2CCC(c3nc(COc4ccc(-n5cnnn5)cc4)cs3)CC2)nc1; cell line = HEK293T; assay = RNA-seq, refers to: MTHFR mRNA; setting = 10 µM, 6 h; scale = relative to: vehicle; endpoint = log2 fold change; value = 0.266
Structure (SMILES) = COc1cnc2cccc(N3CCc4c(cc(Cn5ccnc5C)cc4-c4cn(C)nc4C(F)(F)F)C3=O)c2c1; cell line = COV434; assay = cell growth, inhibitor; setting = 120 h; endpoint = EC50; value = > 30 µM
Structure (SMILES) = O=C(O)Cc1cccnc1; cell line = THP-1; assay = pyroptotic LDH release; setting = 2 µM, 40 min, together with: LPS then nigericin; endpoint = inhibition; value = 8.62%
Structure (SMILES) = O=C(NO)c1cnc(N2C[C@@H]3[C@H](C2)[C@H]3NCc2ccc3cc(F)ccc3n2)nc1; cell line = HEK293T ATF4-FLuc reporter; assay = ATF4 reporter gene, activator, luciferase reporter; endpoint = EC50; value = 0.392 µM
Structure (SMILES) = Nc1ncnc2c1ncn2[C@@H]1O[C@H](CO)[C@@H](O)[C@H]1O; cell line = activated human T cells; assay = refers to: orotate; setting = 30 µM; scale = relative to: DMSO; endpoint = log2 fold change; value = 9.4 and 8.8 and 8.2
Structure (SMILES) = COc1cc(N2CCC(N3CCN(C)CC3)CC2)ccc1Nc1ncc(Cl)c(Nc2ccccc2P(C)(C)=O)n1; cell line = Ba/F3 EML4-ALK variant 1 L1196Q; assay = cell viability; endpoint = Emax; value = 100%
Structure (SMILES) = O=C(O)/C=C/c1ccc(O)c(O)c1; cell line = Caco-2/THP-1 co-culture; setting = 0.05 µg/mL, together with: LPS 50 ng/mL; endpoint = kynurenine level; value = 118 ± 3.7 % change
Structure (SMILES) = CC1=C(C)C(=O)C(CCCCCCCCCC[P+](c2ccccc2)(c2ccccc2)c2ccccc2)=CC1=O; cell line = HEK293T ATF4-FLuc reporter; assay = ATF4 reporter gene, activator, luciferase reporter; endpoint = EC50; value = 0.374 µM
Structure (SMILES) = CCc1c(-c2ccccc2)c(-c2ccccc2)nn1-c1ccccc1-c1cccc(OCC(=O)O)c1; cell line = mouse osteoclasts; assay = RT-qPCR, refers to: Itgb3; setting = concentration not given, unit not given; scale = relative to: bone marrow macrophages; endpoint = mRNA level; value = 2.75 and 2.46 and 2.85
Structure (SMILES) = C=CC1=C(C)c2cc3[n-]c(cc4nc(cc5[n-]c(cc1n2)c(C)c5C=C)C(C)=C4CCC(=O)O)c(CCC(=O)O)c3C.[Zn+2]; cell line = SH-SY5Y; assay = RNA-seq, refers to: SPOCD1 mRNA; setting = 5 µM, 5 h; scale = relative to: untreated cells; endpoint = fold change; value = 4.6
Structure (SMILES) = CC(=O)NCC(=O)O; cell line = THP-1; assay = pyroptotic LDH release; setting = 2 µM, 40 min, together with: LPS then nigericin; endpoint = inhibition; value = 12%
Structure (SMILES) = CCCCc1nc(Cl)c(CO)n1Cc1ccc(-c2ccccc2-c2nn[nH]n2)cc1; cell line = human PBMC; assay = RNA-seq, refers to: MN1 mRNA; setting = 10 µg/mL, 24 h; scale = relative to: untreated control; endpoint = log2 fold change; value = 1.81
Structure (SMILES) = CC/C(=N\NC(=O)NCc1cccc(O)c1)c1ccc(O)c(C)c1O; cell line = SK-OV-3; assay = gene expression, microarray, refers to: THBS1; setting = 10 µM, 24 h; scale = relative to: DMSO; endpoint = log ratio; value = 3.73
Structure (SMILES) = O=C1C=CC(=O)N1; cell line = THP-1; assay = pyroptotic LDH release; setting = 2 µM, 40 min, together with: LPS then nigericin; endpoint = inhibition; value = 15.7%
Structure (SMILES) = CC(C)(C)NC(=O)c1cncn1C1CCN(c2ccc(-c3nnc(C(F)(F)F)o3)cn2)CC1; cell line = HDMEC; assay = qPCR, refers to: GILZ; setting = concentration not given, unit not given; scale = relative to: DMSO; endpoint = mRNA level; value = 0.501
Structure (SMILES) = CNc1nc(-c2cccc(NC(=O)c3ccc(C(=O)OC)cc3)c2)c2cc(OC)c(OC)cc2n1; cell line = HEK293T ATF4-FLuc reporter; assay = ATF4 reporter gene, activator, luciferase reporter; endpoint = EC50; value = > 9.96 µM
Structure (SMILES) = Clc1nc(NCc2ccco2)c2[nH]cnc2n1; cell line = FD iPSC-derived cardiomyocytes; assay = alternative splicing, RNA-seq, refers to: C12orf29 exon chr12:88040147-88040265; setting = unit not given; scale = relative to: DMSO minus compound; endpoint = ΔPSI; value = 0.248
Structure (SMILES) = Cc1cccc(-c2[nH]c(CNc3ccccc3F)nc2-c2ccc3ncnn3c2)n1; cell line = MM1.S; assay = XTT; setting = 1 µM; scale = relative to: untreated; endpoint = viability; value = 71%
Structure (SMILES) = CCn1cc(-c2cc(Cn3ccnc3)cc3c2CCN([C@H](c2cc(OC)ccn2)C2CC2)C3=O)c(C(F)(F)F)n1; cell line = NCI-H747; assay = cell growth, inhibitor; setting = 120 h; endpoint = EC50; value = 23.3 µM
Structure (SMILES) = COc1cc(/C=C/C(=O)N2CCC=CC2=O)cc(OC)c1OC; cell line = MDA-MB-468; assay = quantitative RT-PCR, refers to: NOS2; setting = 30 µM, 8 h; scale = relative to: untreated cells; endpoint = mRNA level; value = 1080 ± 47.7%
Structure (SMILES) = COc1cc(NC(C)CCCN)c2ncccc2c1 (centres unmarked); cell line = human iPSC cardiomyocytes; assay = plate-normalised; setting = concentration not given, hit retest; scale = relative to: vehicle controls, SDs below control; endpoint = MyBP-C level change; value = 14.4 SD
Structure (SMILES) = COC(=O)N[C@H](C(=O)N1CC2(CC2)C[C@H]1c1nc(-c2ccc3c(c2)C(F)(F)c2cc(-c4ccc5[nH]c([C@@H]6[C@H]7CC[C@H](C7)N6C(=O)[C@@H](NC(=O)OC)C(C)C)nc5c4)ccc2-3)c[nH]1)C(C)C; cell line = THP-1; assay = pyroptotic LDH release; setting = 2 µM, 40 min, together with: LPS then nigericin; endpoint = inhibition; value = 5%
Structure (SMILES) = Cc1n[nH]c2nc(-c3ccc(Cl)cc3)c3c(NC(=O)c4ccccc4)nnc-3n12; cell line = RXF 393; assay = SRB; setting = 10 µM, NCI60 single-dose screen; scale = relative to: untreated; endpoint = cell growth; value = 105%
Structure (SMILES) = CSc1cc(Oc2ccnc3[nH]c(=O)cnc23)ccc1NC(=O)Nc1cc(C(C)(C)C)nn1-c1ccccc1; cell line = patient-derived cell clone B (sample A); assay = reverse phase protein array, refers to: Akt pSer473; system = human; setting = 1 µM, 4 h; scale = relative to: DMSO; endpoint = phospho/total Akt ratio; value = 0.35
Structure (SMILES) = O=C(O)Cc1ccc(O)cc1; cell line = Caco-2/THP-1 co-culture; setting = 0.25 µg/mL, together with: LPS 250 ng/mL; endpoint = kynurenine level; value = 91.2 ± 3.5 % change
Structure (SMILES) = CNC(=O)c1cc(Oc2ccc(NC(=O)Nc3ccc(Cl)c(C(F)(F)F)c3)c(F)c2)ccn1; cell line = THP-1; assay = pyroptotic LDH release; setting = 2 µM, 40 min, together with: LPS then nigericin; endpoint = inhibition; value = 15.1%
Structure (SMILES) = CCN(CC)Cc1ccc2cc(COC(=O)Nc3ccc(C(=O)NO)cc3)ccc2c1; cell line = HEK293T ATF4-FLuc reporter; assay = ATF4 reporter gene, activator, luciferase reporter; endpoint = EC50; value = 0.48 µM
Structure (SMILES) = O=C(COP(=O)(O)O)[C@@H](O)[C@H](O)[C@H](O)COP(=O)(O)O; cell line = HepG2 PGAM1 knockout; assay = CCK-8; setting = concentration not given; scale = relative to: untreated wild type; endpoint = cell proliferation; value = 154% and 136% and 156%
Structure (SMILES) = c1ccc2[nH]ccc2c1; cell line = HCT-8; assay = RNA-seq, refers to: ARRDC4; setting = concentration not given; endpoint = mRNA level, LS mean; value = 86.3 counts per million
Structure (SMILES) = CC[N+](CC)(CC(=O)Nc1c(C)cccc1C)Cc1ccccc1; cell line = THP-1; assay = pyroptotic LDH release; setting = 2 µM, 40 min, together with: LPS then nigericin; endpoint = inhibition; value = 3.78%
Structure (SMILES) = Cc1cc(Nc2ncc(Cl)c(Nc3ccccc3S(=O)(=O)C(C)C)n2)c(OC(C)C)cc1C1CCNCC1; cell line = CLB-GE; assay = phosphoproteomics LC-MS/MS, refers to: GAB1 phosphorylation; setting = 200 nM, 60 min; scale = relative to: untreated; endpoint = log2 fold change; value = -4.31
Structure (SMILES) = C[n+]1cc2c3c(ccc2c2ccc4cc5c(cc4c21)OCO5)OCO3; cell line = human iPSC cardiomyocytes; assay = plate-normalised; setting = concentration not given, hit retest; scale = relative to: vehicle controls, SDs below control; endpoint = MyBP-C level change; value = 14.7 SD
Structure (SMILES) = CC(C)NCC(O)c1ccc(O)c(O)c1 (centres unmarked); cell line = mouse ventricular cardiomyocytes; setting = dose not given, 0.128 s; endpoint = sarcomere length; value = 1.61 µm
Structure (SMILES) = C[C@H](CS)C(=O)N1CCC[C@H]1C(=O)O; cell line = HUVEC; assay = western blot; setting = 10, 100, 1 µM, together with: angiotensin II; endpoint = Nrf2 protein level; value = 19.8 % restoration
Structure (SMILES) = Cn1cc(-c2ccncc2)c(-c2ccc(OCc3ccc4ccccc4n3)cc2)n1; cell line = HEK293T ATF4-FLuc reporter; assay = ATF4 reporter gene, activator, luciferase reporter; endpoint = EC50; value = 4.93 µM
Structure (SMILES) = COc1cc(OC)cc(OC)c1; cell line = THP-1; assay = pyroptotic LDH release; setting = 2 µM, 40 min, together with: LPS then nigericin; endpoint = inhibition; value = -0.958%
Structure (SMILES) = CONC(=N)c1ccc(-c2ccc(-c3ccc(C(=N)NOC)cc3)o2)cc1; cell line = HEK293T ATF4-FLuc reporter; assay = ATF4 reporter gene, activator, luciferase reporter; endpoint = EC50; value = 8.64 µM
Structure (SMILES) = COc1cc(CCC(=O)O)ccc1O; cell line = Caco-2/THP-1 co-culture; setting = concentration not given, together with: LPS 50 ng/mL; endpoint = kynurenine level; value = 128 ± 12.4 % change
Structure (SMILES) = Cn1cc(Nc2nccc(-c3ccc4c(c3)CN(C3COC3)CC[C@H]4NC(=O)c3cn(C(C)(C)C)nn3)n2)cn1; cell line = mouse splenic B cells; assay = refers to: IGF-1 signalling; setting = 30 mg/kg, IgD-activated in vivo; scale = relative to: vehicle, direction not given; endpoint = pathway activation z-score; value = 1.73
Structure (SMILES) = COc1cc(-c2oc3cc(O)cc(O)c3c(=O)c2O)ccc1O; cell line = coculture, Caco-2, THP-1; assay = ELISA; setting = 250 ng/mL, 8 h, together with: LPS, IFNγ, ATP; scale = relative to: untreated control; endpoint = IL-1β level; value = 5.4 ± 2.1 fold change
Structure (SMILES) = CCCCN1CCN(c2ccc3[nH]c(-c4ccc5[nH]c(-c6ccc(C(F)(F)F)cc6)nc5c4)nc3c2)CC1; cell line = SF-268; assay = SRB; setting = 10 µM, 48 h; endpoint = growth percent; value = -71.8%
Structure (SMILES) = O=C(O)CCc1cccc(O)c1; cell line = coculture, Caco-2, THP-1; assay = ELISA; setting = 50 ng/mL, 8 h, together with: LPS, IFNγ, ATP; scale = relative to: untreated control; endpoint = IL-1β level; value = 10.3 ± 2 fold change
Structure (SMILES) = Cn1cc(-c2ccc(-c3cncc(Cl)c3N3CCC4(CCNC4=O)CC3)cc2)cn1; cell line = COLO 205; assay = gene expression, microarray, refers to: EXD3 mRNA; setting = concentration not given, 2 h; scale = relative to: untreated cells; endpoint = log2 fold change; value = 5.15
Structure (SMILES) = Cc1nn(-c2nc3ccc(Cl)c(Cl)c3[nH]2)c(O)c1C1OC(=O)c2ccccc21 (centres unmarked); cell line = RAW-ISG; assay = TBK1 phosphorylation, western blot; setting = 10 µM, together with: poly(I:C); scale = relative to: DMSO; endpoint = phospho-TBK1/TBK1 ratio; value = 0.701
Structure (SMILES) = Cn1c(Nc2nc3ccc(C(F)(F)F)cc3s2)nc2cc(C(=O)NCCOCCO)ccc21; cell line = SH-SY5Y; assay = RNA-seq, refers to: TRAF1 mRNA; setting = 5 µM, 5 h; scale = relative to: untreated cells; endpoint = fold change; value = 1.94
Structure (SMILES) = O=c1c(O)c(-c2ccc(O)cc2)oc2cc(O)cc(O)c12; cell line = coculture, Caco-2, THP-1; assay = ELISA; setting = 250 ng/mL, 8 h, together with: LPS, IFNγ, ATP; scale = relative to: untreated control; endpoint = IL-1β level; value = 7.2 ± 1 fold change
Structure (SMILES) = O=c1[nH]nc(OCCCc2ccc(Cl)cc2)c(NCc2cccnc2)c1Br; cell line = HEK293T; assay = RNA-seq, refers to: CHAC1 mRNA; setting = 10 µM, 6 h; scale = relative to: vehicle; endpoint = log2 fold change; value = 3.7
Structure (SMILES) = CCn1cc(-c2cc(Cn3ccoc3=N)cc3c2CCN([C@@H](C)c2cc(OC)ccn2)C3=O)c(C(F)(F)F)n1; cell line = Calu-1; assay = cell growth, inhibitor; setting = 120 h; endpoint = EC50; value = 0.451 µM
Structure (SMILES) = OCCNCCO; cell line = THP-1; assay = pyroptotic LDH release; setting = 2 µM, 40 min, together with: LPS then nigericin; endpoint = inhibition; value = 6.38%
Structure (SMILES) = COc1ccc(NC(=S)N/N=C/c2cccc3cc4ccccc4nc23)cc1; cell line = HeLa; assay = PI flow cytometry; setting = IC50, 48 h; endpoint = cells in G1 phase; value = 43.9%
Structure (SMILES) = O=C(Nc1nnc2n3c(nc(-c4ccc(Cl)cc4)c1-2)SCC3=O)c1ccccc1; cell line = RXF 393; assay = SRB; setting = 10 µM, NCI60 single-dose screen; scale = relative to: untreated; endpoint = cell growth; value = 99.2%
Structure (SMILES) = O=C(O)CCc1ccc(O)cc1; cell line = Caco-2/THP-1 co-culture; setting = 0.05 µg/mL, together with: LPS 50 ng/mL; endpoint = kynurenine level; value = 102 ± 2.3 % change
Structure (SMILES) = O=C(/C=C/C=C/C=C/C1CCCCC1)NC1=C[C@@](O)(/C=C/C=C/C=C/C(=O)NC2=C(O)CCC2=O)[C@@H]2O[C@@H]2C1=O; cell line = SK-ES1; assay = cell growth, CellTiter-Glo; setting = 78 h; endpoint = GI50; value = 10.8 µM
